Experimental data collected from several papers.
Each line is one published result; not all experiments were run side by side. ± marks the error that the study gave.
CASP4: Caspase-4 (CASP4, Homo sapiens, UniProt P49662)
Fibroblast growth factor 2 with pentraxin 3: Fibroblast growth factor 2, with pentraxin 3 (Homo sapiens, UniProt P09038)
APP: Amyloid-beta precursor protein (APP, Homo sapiens, UniProt P05067)
T1: FMN riboswitch G8A/G9A/G74A/G96A (Lactobacillus plantarum); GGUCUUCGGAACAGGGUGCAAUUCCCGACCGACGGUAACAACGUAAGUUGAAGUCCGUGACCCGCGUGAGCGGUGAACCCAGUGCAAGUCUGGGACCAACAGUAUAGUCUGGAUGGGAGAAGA
B1: calmodulin N-terminal domain; chain AEQLTEEQIAEFKEAFALFDKDGDGTITTKELGTVMRSLGQNPTEAELQDMINEVDADGNGTIDFPEFLSLMARK

| Molecule | tested on | test | test system | setting | scale | quantity | result |
| --- | --- | --- | --- | --- | --- | --- | --- |
| O=c1cc(-c2ccc(O)c(O)c2)oc2cc(O)cc(O)c12 | CASP4 |  |  | 33 µM, together with: LEHD substrate | relative to: solvent control | remaining activity | 9.74% |
| O=C(Nc1ccn(Cc2ccc(O)cc2C(F)(F)F)n1)c1c(F)cccc1F | Protein orai-3 (ORAI3, Homo sapiens, UniProt Q9BRQ5) | ion current, inhibitor, whole-cell patch clamp |  | concentration not given, together with: 2-APB | relative to: 2-APB-elicited over STIM1-activated currents | fold change in sensitivity | ~10 fold |
| Cc1cc2nc3[nH]c(=O)[nH]c(=O)c3nc2cc1C | T1, FMN riboswitch G8A/G9A/G74A/G96A (Lactobacillus plantarum) | ITC |  | pH 7.5, 25 °C, NaCl 100 mM |  | Kd | 35 nM |
| CSCC[C@H](NC(=O)NC1(c2ccccc2)CCN(Cc2cncn2Cc2ccc(-n3cc(COCCCCCCNC(=O)c4ccc(N)cc4)nn3)cc2)CC1)C(=O)O | Geranylgeranyl transferase type I (Homo sapiens, UniProt P49354+P53609) | enzyme activity, inhibitor, fluorescence |  | together with: dansyl-K-Ras C-terminal peptide | relative to: guanidyl-gallate derivative | relative potency | ~230 |
| CCc1nc2c([nH]1)c(=O)n(C)c(=O)n2C | Androgen receptor (AR, Homo sapiens, UniProt P10275) | reporter gene, antagonist, PSA-luciferase | HeLa-A6 | 10 µM, 24 h, together with: 5 nM dihydrotestosterone | relative to: maximal activity | remaining activity | 83% |
| CO[C@H]1O[C@H](COS(=O)(=O)O)[C@@H](O[C@@H]2O[C@@H](C(=O)O)[C@@H](O[C@H]3O[C@H](COS(=O)(=O)O)[C@@H](O[C@@H]4O[C@H](C(=O)O)[C@@H](O[C@H]5O[C@H](COS(=O)(=O)O)[C@@H](O)[C@H](O)[C@H]5NS(=O)(=O)O)[C@H](O)[C@H]4O)[C@H](OS(=O)(=O)O)[C@H]3NS(=O)(=O)O)[C@H](O)[C@H]2OS(=O)(=O)O)[C@H](O)[C@H]1NS(=O)(=O)O | Antithrombin-III (SERPINC1, Homo sapiens, UniProt P01008) | differential scanning fluorimetry |  | 62.5 µg, antithrombin 1 mg/mL |  | Tm | 65.8 °C |
| CCN(c1ccccc1)S(=O)(=O)C1CC2OC1C(c1ccc(O)cc1)=C2c1ccc(O)cc1 (centres unmarked) | Estrogen receptor (ESR1, Homo sapiens, UniProt P03372) | reporter gene, antagonist | HepG2 | together with: estradiol 10 nM | relative to: E2 response, negative is inverse agonism | efficacy | 10 ± 2% |
| Cn1c(=O)n([C@@H]2O[C@H](COP(=O)(O)CP(=O)(O)O)[C@@H](O)[C@H]2O)cc/c1=N\OCc1ccc(Cl)cc1 | 5'-nucleotidase, membrane-bound form (Rattus norvegicus, UniProt P21588) | enzyme activity, inhibitor | rat primary astrocytes | 15 min preincubation, together with: AMP 1.0 mM |  | Emax | 97.3 ± 6.4% |
| CLML | Protein farnesyltransferase (Rattus norvegicus, UniProt Q02293+Q04631) | substrate, stopped-flow fluorescence | peptide | pH 7.8, 25 °C, single turnover |  | farnesylation rate constant | 0.018 ± 0.002 s⁻¹ |
| CC(=O)Oc1cccc2c1C(=O)c1c(OC(C)=O)cc(C(=O)O)cc1C2=O | CASP4 |  |  | 33 µM, together with: LEHD substrate | relative to: solvent control | remaining activity | 12.5% |
| catalase | NADH:cytochrome c oxidoreductase, rat |  | lysed brain mitochondria | 1 U, together with: dopamine 200 µM plus tyrosinase |  | protection of complex I/III activity | no effect |
| CPCGARRPDSRLLELHIT (LAGE-1 (76-93); sequence looked up) | HLA-DPB1*0401 | peptide binding, biotinylated peptide competition | peptide |  | relative to: peptide over reference peptide, lower = stronger binding | relative IC50 | > 7300 |
| O=C(Nc1ccc([N+](=O)[O-])cc1Cl)c1cc(Cl)ccc1O | CASP4 |  |  | 33 µM, together with: LEHD substrate | relative to: solvent control | remaining activity | 11.3% |
| CC(C)[C@H](NC(=O)[C@H](CCCNC(=N)N)NC(=O)[C@@H](NC(=O)[C@H](CCC(N)=O)NC(=O)[C@H](CCC(N)=O)NC(=O)[C@@H](NC(=O)[C@H](Cc1c[nH]c2ccccc12)NC(=O)[C@@H]1CCCN1C(=O)[C@@H]1CCCN1C(=O)[C@H](Cc1ccccc1)NC(=O)[C@@H](CO)NC(=O)CNC(=O)[C@H](CCCNC(=N)N)NC(=O)[C@H](CCCNC(=N)N)NC(=O)[C@H](CCCNC(=N)N)NC(=O)[C@H](CCCNC(=N)N)NC(=O)[C@H](CCCNC(=N)N)NC(=O)[C@@H](N)CCCNC(=N)N)C(C)C)[C@@H](C)O)C(=O)O | Disks large homolog 4, PDZ3 domain (Homo sapiens, UniProt P78352) | binding, surface plasmon resonance |  | pH 7.5, 25 °C |  | kon | 633000 M⁻¹ s⁻¹ |
| B1 (calmodulin N-terminal domain) | rat NaV1.2 IQ peptide | NMR HSQC |  | concentration not given, apo and calcium-saturated |  | binding | no binding |
| Ac-ARPCG-NH2 (N-acetyl, C-amide) | Fibroblast growth factor 2 with pentraxin 3 | binding to PTX3, competitor, surface plasmon resonance | peptide | together with: 150 nM free FGF2 |  | ID50 | 1 mM |

| Molecule | tested on | test | test system | setting | scale | quantity | result |
| --- | --- | --- | --- | --- | --- | --- | --- |
| FEDSIYADIFIEE | Tyrosine-protein kinase CSK (CSK, Homo sapiens, UniProt P41240) | substrate | peptide | concentration not given | relative to: Glu or Asp Y-1 parent peptide | kcat/Km fold change | 1.1 fold |
| O=C(O)c1c(Cl)c(Cl)c(Cl)c(Cl)c1-c1c2cc(I)c(=O)c(I)c-2oc2c(I)c(O)c(I)cc12 | Dual specificity protein phosphatase 5 (Homo sapiens, UniProt Q16690) | inhibitor |  | 1 µM, illumination, gassed with air, N2 or O2 | relative to: illuminated, without compound | enzyme velocity | decreased |
| CC[C@H](C)[C@H](NC(=O)[C@H](CCCCN)NC(=O)[C@H](CC(C)C)NC(=O)[C@H](CC(C)C)NC(=O)[C@@H]1CCCN1C(=O)[C@H](CC(C)C)NC(=O)[C@H](CCCCN)NC(=O)[C@@H]1CCCN1C(=O)[C@H](CCCNC(=N)N)NC(=O)[C@@H](NC(=O)[C@H](CCC(N)=O)NC(=O)[C@H](CC(N)=O)NC(C)=O)C(C)C)C(=O)N[C@@H](CC(C)C)C(=O)N[C@@H](Cc1c[nH]cn1)C(=O)N[C@@H](C)C(=O)N[C@@H](C)C(=O)NCC(=O)N[C@@H](C)C(=O)N[C@@H](CCC(N)=O)C(=O)N[C@@H](Cc1ccc(O)cc1)C(N)=O | Protein S100-B (Homo sapiens, UniProt P04271) | binding, NMR line shape, fixed Kd |  | 35 °C, low salt |  | koff | 30 ± 10 s⁻¹ |
| CC[C@H](C)[C@H](NC(=O)[C@H](CC(C)C)NC(=O)[C@H](CC(C)C)NC(=O)CNC(=O)[C@H](Cc1ccc(O)cc1)NC(=O)[C@H](CCCNC(=N)N)NC(=O)[C@H](CO)NC(C)=O)C(=O)N[C@@H](CCCCN)C(=O)N[C@@H](C)C(=O)N[C@@H](Cc1ccccc1)C(=O)N[C@@H](CO)C(=O)N[C@@H](CCSC)C(=O)N[C@H](C(=O)N[C@@H](C)C(=O)N[C@@H](C)C(=O)N[C@@H](CCC(=O)O)C(=O)N[C@H](C(=O)N[C@@H](C)C(=O)N[C@@H](CCCNC(=N)N)C(=O)N[C@@H](CCCNC(=N)N)C(=O)N[C@H](C(=O)N[C@@H](CCCNC(=N)N)C(=O)N[C@@H](CCC(=O)O)C(=O)N[C@@H](Cc1ccccc1)C(=O)N[C@@H](CCCNC(=N)N)C(N)=O)[C@@H](C)O)[C@@H](C)O)[C@@H](C)O | calmodulin 1-148 sites I and II | calcium binding, Phe fluorescence titration |  | 12 µM, pH 7.4, 22 °C, together with: 6 µM calmodulin |  | apparent ΔG2 | -14.9 ± 0.28 kcal/mol |
| Ac-ARPSA-NH2 (N-acetyl, C-amide) | Fibroblast growth factor 2 with pentraxin 3 | binding to PTX3, competitor, surface plasmon resonance | peptide | together with: 150 nM free FGF2 |  | ID50 | > 3 mM |
| FC(F)OC(Cl)C(F)(F)F (centres unmarked) | Gabrg2/GABRB2/Gabra1 (Rattus norvegicus, UniProt P18508+P47870+P62813, C260A/C282A/C312A/C319A/C341A/N289C/Q255C) | two-electrode voltage clamp | Xenopus oocytes | 0.3 and 0.9 mM, after Cu-phenanthroline oxidation, together with: GABA EC10 | relative to: after DTT | GABA current modulation | increased |
| O=C1CC(c2ccccc2)CC(=O)C1CS(=O)(=O)c1ccccc1 (centres unmarked) | Sphingomyelin phosphodiesterase (SMPD1, Homo sapiens, UniProt P17405) | inhibitor |  | concentration not given, pH 5.0 | relative to: HMU-PC over sphingomyelin substrate | inhibition fold change | 55.6 fold |
| CC[C@H](C)[C@H](NC(=O)[C@@H](NC(=O)[C@H](N)C(C)C)C(C)C)C(=O)N[C@@H](C)C(N)=O | APP | amyloid aggregation, inhibitor, fluorescence |  | 2 µM, 24 h |  | inhibition | 64.7% |
| UGT1A9 (Homo sapiens, UniProt O60656) | COc1cc(/C=C/C(=O)CC(=O)/C=C/c2ccc(O)c(OC)c2)ccc1O | steady-state kinetics |  | pH 7.4, 37 °C |  | Km | 35.4 µM |
| Cc1c(C)c2c(c(C)c1O)CC[C@@](C)(CCCCCCCCCn1ccnc1)O2 | Cytochrome P450 4F2 (Homo sapiens, UniProt P78329) | γ-tocopherol metabolism | HepG2/C3A |  |  | concentration for complete inhibition | < 0.25 µM |
| O=Cc1ccc(O)cc1 | Enoyl-ACP reductase (Thermus thermophilus, UniProt P83818) | enzyme activity, substrate, steady-state turnover |  |  |  | NAD(P)H oxidation rate | no effect |
| COc1ccc(C=CC(=O)CC(=O)C=Cc2ccc(OC)c(F)c2)cc1F | APP | Aβ aggregation, SDS-PAGE western blot, item: Aβ1-42 75-200 kDa band |  | 30 µM, 24 h, 37 °C, together with: Aβ1-42 10 µM | relative to: DMSO | band density | 97 ± 4% |
| COc1cc(C=O)ccc1O | UGT (rat) | 4-MU glucuronidation, inhibitor | rat liver microsomes |  |  | lowest inhibitory concentration | ≥ 0.1 µM |
| Clc1ccc2c(c1)CCc1cccnc1C2=C1CCN(CC2CC2)CC1 | Histamine H1 receptor (HRH1, Homo sapiens, UniProt P35367) | histamine-induced calcium response, antagonist |  | concentration not given, after washout of unbound compound, together with: histamine |  | duration of complete antagonism | ≥ 2 h |
| O=C(N1CCCC[C@@H]1Cc1ccccc1)n1cnc(C(O)(c2ccc(F)cc2)c2ccc(F)cc2)n1 | Diacylglycerol lipase-alpha (Mus musculus, UniProt Q6WQJ1) | enzyme activity, inhibitor |  |  |  | kinact | 0.00125 s⁻¹ |
| Ac-GPSLNPFDEED-NH2 (N-acetyl, C-amide) | EHD1 EH domain, mouse | ITC | peptide | pH 7.0, 20 °C, 0 mM KCl, second titration |  | ΔH | -11.3 kcal/mol |

A few entries again:
| Molecule | tested on | test | test system | setting | scale | quantity | result |
| --- | --- | --- | --- | --- | --- | --- | --- |
| catalase | NADH:cytochrome c oxidoreductase, rat |  | lysed brain mitochondria | 1 U, together with: dopamine 200 µM plus tyrosinase |  | protection of complex I/III activity | no effect |
| CPCGARRPDSRLLELHIT (LAGE-1 (76-93); sequence looked up) | HLA-DPB1*0401 | peptide binding, biotinylated peptide competition | peptide |  | relative to: peptide over reference peptide, lower = stronger binding | relative IC50 | > 7300 |
| O=C(Nc1ccc([N+](=O)[O-])cc1Cl)c1cc(Cl)ccc1O | CASP4 |  |  | 33 µM, together with: LEHD substrate | relative to: solvent control | remaining activity | 11.3% |
| CC(C)[C@H](NC(=O)[C@H](CCCNC(=N)N)NC(=O)[C@@H](NC(=O)[C@H](CCC(N)=O)NC(=O)[C@H](CCC(N)=O)NC(=O)[C@@H](NC(=O)[C@H](Cc1c[nH]c2ccccc12)NC(=O)[C@@H]1CCCN1C(=O)[C@@H]1CCCN1C(=O)[C@H](Cc1ccccc1)NC(=O)[C@@H](CO)NC(=O)CNC(=O)[C@H](CCCNC(=N)N)NC(=O)[C@H](CCCNC(=N)N)NC(=O)[C@H](CCCNC(=N)N)NC(=O)[C@H](CCCNC(=N)N)NC(=O)[C@H](CCCNC(=N)N)NC(=O)[C@@H](N)CCCNC(=N)N)C(C)C)[C@@H](C)O)C(=O)O | Disks large homolog 4, PDZ3 domain (Homo sapiens, UniProt P78352) | binding, surface plasmon resonance |  | pH 7.5, 25 °C |  | kon | 633000 M⁻¹ s⁻¹ |
